Experimental data collected from several papers.
Protocols differ between the studies behind these lines. ± gives the spread as reported.
Target: Voltage-gated inwardly rectifying potassium channel KCNH2 (KCNH2, Homo sapiens, UniProt Q12809)
Chain of UniProt Q12809 (whole entry, looked up): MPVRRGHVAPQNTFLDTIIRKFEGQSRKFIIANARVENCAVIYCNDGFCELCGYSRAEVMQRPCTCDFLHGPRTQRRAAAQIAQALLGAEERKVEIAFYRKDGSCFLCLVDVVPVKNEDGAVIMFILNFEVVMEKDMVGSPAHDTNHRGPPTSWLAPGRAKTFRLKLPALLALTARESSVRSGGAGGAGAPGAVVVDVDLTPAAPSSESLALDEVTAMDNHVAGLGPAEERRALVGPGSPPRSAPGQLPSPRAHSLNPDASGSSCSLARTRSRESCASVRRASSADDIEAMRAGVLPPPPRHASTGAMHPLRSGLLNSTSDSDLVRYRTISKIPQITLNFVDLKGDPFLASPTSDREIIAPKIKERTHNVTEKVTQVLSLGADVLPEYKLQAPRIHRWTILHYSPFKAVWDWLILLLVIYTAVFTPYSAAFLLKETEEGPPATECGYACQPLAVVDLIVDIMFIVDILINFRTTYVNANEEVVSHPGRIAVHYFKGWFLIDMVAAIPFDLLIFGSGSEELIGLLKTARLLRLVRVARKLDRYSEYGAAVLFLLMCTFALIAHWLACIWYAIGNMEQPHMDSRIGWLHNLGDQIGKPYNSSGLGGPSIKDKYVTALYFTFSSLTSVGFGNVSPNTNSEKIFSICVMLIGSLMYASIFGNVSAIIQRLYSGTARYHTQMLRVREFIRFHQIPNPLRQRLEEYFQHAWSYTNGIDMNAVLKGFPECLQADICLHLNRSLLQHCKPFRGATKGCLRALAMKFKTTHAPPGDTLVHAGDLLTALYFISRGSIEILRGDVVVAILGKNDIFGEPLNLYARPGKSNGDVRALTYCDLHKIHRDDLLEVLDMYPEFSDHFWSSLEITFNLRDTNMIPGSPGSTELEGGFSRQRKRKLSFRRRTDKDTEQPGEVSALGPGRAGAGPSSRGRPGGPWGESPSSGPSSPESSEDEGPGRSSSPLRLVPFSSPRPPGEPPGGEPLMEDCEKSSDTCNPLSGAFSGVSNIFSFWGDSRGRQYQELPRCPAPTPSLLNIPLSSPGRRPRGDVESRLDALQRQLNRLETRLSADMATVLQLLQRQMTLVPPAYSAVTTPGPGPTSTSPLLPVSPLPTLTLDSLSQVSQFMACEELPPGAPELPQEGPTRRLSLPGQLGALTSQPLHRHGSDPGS

| SMILES | test | test system | conditions | inhibition [%] |
| --- | --- | --- | --- | --- |
| N[C@H]1CCCc2c1[nH]c1ccc(Cl)cc21 | ligand displacement, radioligand | – | 10 µM | 72.5 |
| COc1ccc(S(=O)(=O)N2CCc3ccccc3C2)cc1N1CCN(C(=O)c2ccc(F)cc2C(F)(F)F)CC1 | automated patch clamp | – | 0.1 to 10 µM | < 20 |
| Cc1ccc(OCC(=O)N(Cc2cccs2)c2ccn[nH]2)cc1 | ion current, inhibitor, patch clamp | – | 10 µM | < 10 |
| CCC(=O)N(C)c1ccc(Cl)c(Cl)c1 | ion current, inhibitor, patch clamp | HEK293 | 10 µM | 3 |
| Cc1cc(O)cc(O)c1C(=O)c1c2c3c(c(O)cc(C)c3oc1=O)C(=O)c1c(O)cc(O)cc1-2 | potassium current, inhibitor | HEK293 | 10 µM, pH 7.4 | 10.1 ± 5.9 |
| Brc1ccccc1-c1nnc(CSc2nnnn2-c2ccccc2)o1 | tracer binding, competition binding | – | 10 µM | 48 |
| CCn1cc(-c2ccnc(Nc3ccc(N4CCNCC4)cc3)n2)c(-c2cccnc2)n1 | automated patch clamp | – | 10 µM | 27 |
| CC12CC3CC(C)(C1)CC(NC(=O)Nc1ccc(C(=O)N4CCC[C@H](C(N)=O)C4)cc1F)(C3)C2 | ion current, inhibitor, patch clamp | HEK293 | 30 µM | 42 |
| CS(=O)(=O)c1sc(NC(=O)Nc2ccc(Cl)cc2)c2c1C=CCC2 | ligand displacement, FP | – | 10 µM, cell membranes | 4 |

A few entries again:
| SMILES | test | test system | conditions | inhibition [%] |
| --- | --- | --- | --- | --- |
| Brc1ccccc1-c1nnc(CSc2nnnn2-c2ccccc2)o1 | tracer binding, competition binding | – | 10 µM | 48 |
